Published values from different studies.
Each numbered part is a random draw from the data of one study; scales do not carry over between parts.
UniProt Q9UM73, sequence (whole entry, unmodified, looked up): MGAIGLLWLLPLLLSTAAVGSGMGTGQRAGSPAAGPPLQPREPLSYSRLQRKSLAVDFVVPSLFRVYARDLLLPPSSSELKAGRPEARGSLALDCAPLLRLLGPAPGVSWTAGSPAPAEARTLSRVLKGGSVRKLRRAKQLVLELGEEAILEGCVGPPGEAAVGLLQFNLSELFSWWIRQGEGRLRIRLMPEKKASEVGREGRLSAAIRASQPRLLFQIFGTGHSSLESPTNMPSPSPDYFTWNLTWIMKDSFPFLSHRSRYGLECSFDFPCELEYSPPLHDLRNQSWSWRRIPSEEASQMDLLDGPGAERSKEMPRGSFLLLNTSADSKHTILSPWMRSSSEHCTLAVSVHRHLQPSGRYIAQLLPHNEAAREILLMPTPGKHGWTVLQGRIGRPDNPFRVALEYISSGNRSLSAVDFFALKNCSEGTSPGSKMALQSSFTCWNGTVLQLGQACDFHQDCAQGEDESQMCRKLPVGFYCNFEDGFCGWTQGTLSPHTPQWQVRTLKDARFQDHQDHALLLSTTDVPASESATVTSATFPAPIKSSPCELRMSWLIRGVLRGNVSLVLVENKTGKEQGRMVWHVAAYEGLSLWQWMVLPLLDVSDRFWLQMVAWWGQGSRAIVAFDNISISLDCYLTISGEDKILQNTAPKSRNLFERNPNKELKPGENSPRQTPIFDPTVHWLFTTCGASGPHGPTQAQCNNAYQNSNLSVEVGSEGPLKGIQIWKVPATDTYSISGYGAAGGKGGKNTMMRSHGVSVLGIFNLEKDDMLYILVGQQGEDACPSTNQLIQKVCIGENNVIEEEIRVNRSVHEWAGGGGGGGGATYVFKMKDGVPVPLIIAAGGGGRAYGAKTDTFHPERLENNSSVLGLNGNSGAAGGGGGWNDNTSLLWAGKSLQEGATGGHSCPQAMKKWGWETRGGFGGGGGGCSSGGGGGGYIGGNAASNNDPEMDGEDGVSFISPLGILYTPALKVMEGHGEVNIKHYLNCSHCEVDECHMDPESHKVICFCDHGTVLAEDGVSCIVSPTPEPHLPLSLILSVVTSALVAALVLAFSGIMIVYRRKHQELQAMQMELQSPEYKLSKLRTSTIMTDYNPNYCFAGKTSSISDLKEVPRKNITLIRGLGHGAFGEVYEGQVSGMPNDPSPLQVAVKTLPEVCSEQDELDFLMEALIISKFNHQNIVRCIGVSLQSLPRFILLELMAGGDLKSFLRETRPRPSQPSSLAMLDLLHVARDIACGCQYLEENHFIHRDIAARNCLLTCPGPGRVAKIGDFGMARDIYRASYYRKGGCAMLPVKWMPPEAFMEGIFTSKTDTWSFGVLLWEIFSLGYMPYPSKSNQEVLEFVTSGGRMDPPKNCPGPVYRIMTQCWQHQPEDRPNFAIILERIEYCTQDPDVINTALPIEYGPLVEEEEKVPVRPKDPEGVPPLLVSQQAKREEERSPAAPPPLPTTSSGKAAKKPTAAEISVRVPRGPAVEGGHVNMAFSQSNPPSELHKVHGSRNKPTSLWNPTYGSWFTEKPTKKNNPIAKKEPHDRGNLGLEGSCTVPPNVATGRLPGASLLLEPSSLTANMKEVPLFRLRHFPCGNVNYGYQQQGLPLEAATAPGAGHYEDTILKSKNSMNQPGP
UniProt P20794, sequence (whole entry, looked up): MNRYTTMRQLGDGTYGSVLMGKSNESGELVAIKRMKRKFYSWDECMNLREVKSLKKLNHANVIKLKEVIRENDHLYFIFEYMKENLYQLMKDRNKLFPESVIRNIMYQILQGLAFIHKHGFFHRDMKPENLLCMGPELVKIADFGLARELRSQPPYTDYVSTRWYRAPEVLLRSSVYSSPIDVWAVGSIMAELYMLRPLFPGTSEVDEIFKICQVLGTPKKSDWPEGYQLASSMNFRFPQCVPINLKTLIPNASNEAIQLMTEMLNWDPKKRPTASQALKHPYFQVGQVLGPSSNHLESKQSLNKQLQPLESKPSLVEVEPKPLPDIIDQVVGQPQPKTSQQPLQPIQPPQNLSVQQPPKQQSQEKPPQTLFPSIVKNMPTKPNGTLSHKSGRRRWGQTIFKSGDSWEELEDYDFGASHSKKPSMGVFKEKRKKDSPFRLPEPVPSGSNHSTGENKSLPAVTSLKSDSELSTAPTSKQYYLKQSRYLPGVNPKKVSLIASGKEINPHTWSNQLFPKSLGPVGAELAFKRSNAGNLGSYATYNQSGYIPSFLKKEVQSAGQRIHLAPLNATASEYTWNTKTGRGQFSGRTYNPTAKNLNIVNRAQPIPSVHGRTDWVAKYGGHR
UniProt Q00532, sequence (whole entry, looked up): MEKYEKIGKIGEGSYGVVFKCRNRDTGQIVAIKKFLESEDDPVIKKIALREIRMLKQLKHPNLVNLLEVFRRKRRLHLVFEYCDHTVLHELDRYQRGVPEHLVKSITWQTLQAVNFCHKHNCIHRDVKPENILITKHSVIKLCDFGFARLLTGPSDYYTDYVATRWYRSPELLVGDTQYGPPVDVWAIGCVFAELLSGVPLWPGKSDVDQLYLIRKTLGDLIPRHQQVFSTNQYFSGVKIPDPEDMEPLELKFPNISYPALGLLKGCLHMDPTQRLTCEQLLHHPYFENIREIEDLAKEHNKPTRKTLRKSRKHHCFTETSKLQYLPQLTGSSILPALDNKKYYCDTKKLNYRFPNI

Block 1 — effect on: kinase activity
SMILES: CNc1ncc2cc(-c3cc(OC)cc(OC)c3Cl)c(=O)n(CCc3ccc(NC(=O)C(C#N)=CC(C)(C)N4CCOCC4)cc3)c2n1
| target | concentration | inhibition |
| --- | --- | --- |
| Sphingosine kinase 2 (SPHK2, Homo sapiens, UniProt Q9NRA0) | 0.1 µM | 0% |
| Ephrin type-A receptor 2 (EPHA2, Homo sapiens, UniProt P29317) | 0.1 µM | 1% |
| Ribosomal protein S6 kinase beta-2 (RPS6KB2, Homo sapiens, UniProt Q9UBS0) | 1 µM | 1% |
| MAP kinase-interacting serine/threonine-protein kinase 2 (MKNK2, Homo sapiens, UniProt Q9HBH9) | 0.1 µM | 5% |
| Ephrin type-A receptor 4 (EPHA4, Homo sapiens, UniProt P54764) | 1 µM | 0% |
| Serine/threonine-protein kinase Chk2 (CHEK2, Homo sapiens, UniProt O96017) | 0.1 µM | -2% |
| Serine/threonine-protein kinase PLK1 (PLK1, Homo sapiens, UniProt P53350) | 0.1 µM | -2% |
| Phosphatidylinositol 4,5-bisphosphate 3-kinase catalytic subunit gamma isoform (PIK3CG, Homo sapiens, UniProt P48736) | 1 µM | 2% |
| Homeodomain-interacting protein kinase 1 (HIPK1, Homo sapiens, UniProt Q86Z02) | 1 µM | -1% |
| Misshapen-like kinase 1 (MINK1, Homo sapiens, UniProt Q8N4C8) | 0.1 µM | 9% |
| Mitogen-activated protein kinase 8 (MAPK8, Homo sapiens, UniProt P45983) | 1 µM | 6% |
| Mitogen-activated protein kinase kinase kinase 7, with TAB1 (MAP3K7, Homo sapiens, UniProt O43318) | 0.1 µM | -2% |
| Tyrosine-protein kinase Lck (LCK, Homo sapiens, UniProt P06239) | 0.1 µM | 2% |
| Insulin receptor-related protein (INSRR, Homo sapiens, UniProt P14616) | 0.1 µM | -1% |
| Mitogen-activated protein kinase 3 (MAPK3, Homo sapiens, UniProt P27361) | 0.1 µM | 6% |
| Tyrosine-protein kinase JAK1 (JAK1, Homo sapiens, UniProt P23458) | 0.1 µM | 0% |
| Calcium/calmodulin-dependent protein kinase type II subunit alpha (CAMK2A, Homo sapiens, UniProt Q9UQM7) | 1 µM | -2% |
| MAP kinase-activated protein kinase 2 (MAPKAPK2, Homo sapiens, UniProt P49137) | 1 µM | 5% |
| Tyrosine-protein kinase receptor TYRO3 (TYRO3, Homo sapiens, UniProt Q06418) | 1 µM | 2% |
| Death-associated protein kinase 3 (DAPK3, Homo sapiens, UniProt O43293) | 1 µM | -7% |

Block 2 — effect on: enzyme activity; mode: inhibitor; method: fluorescence
Target: Amine oxidase [copper-containing] 3 (AOC3, Homo sapiens, UniProt Q16853)
UniProt Q16853, sequence (whole entry, looked up): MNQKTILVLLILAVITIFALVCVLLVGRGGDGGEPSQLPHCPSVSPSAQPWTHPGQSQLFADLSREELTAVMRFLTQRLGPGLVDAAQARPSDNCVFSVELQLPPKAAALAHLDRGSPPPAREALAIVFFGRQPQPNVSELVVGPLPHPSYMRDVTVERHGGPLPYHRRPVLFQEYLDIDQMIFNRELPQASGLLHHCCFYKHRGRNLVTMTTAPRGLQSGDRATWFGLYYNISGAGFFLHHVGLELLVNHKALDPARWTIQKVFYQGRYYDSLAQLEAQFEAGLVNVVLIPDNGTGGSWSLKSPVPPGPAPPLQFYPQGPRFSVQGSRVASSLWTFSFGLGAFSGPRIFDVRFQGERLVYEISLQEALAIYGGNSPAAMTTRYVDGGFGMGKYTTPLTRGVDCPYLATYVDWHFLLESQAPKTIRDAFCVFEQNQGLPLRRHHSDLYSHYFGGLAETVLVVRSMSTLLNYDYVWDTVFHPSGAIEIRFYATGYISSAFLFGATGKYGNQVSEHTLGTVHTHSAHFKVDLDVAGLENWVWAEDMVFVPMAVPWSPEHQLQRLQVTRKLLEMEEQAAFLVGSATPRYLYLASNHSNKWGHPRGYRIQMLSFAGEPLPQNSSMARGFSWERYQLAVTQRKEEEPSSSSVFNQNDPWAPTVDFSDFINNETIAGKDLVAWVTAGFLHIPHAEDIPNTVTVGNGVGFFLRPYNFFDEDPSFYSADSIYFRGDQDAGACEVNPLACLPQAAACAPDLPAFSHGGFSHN
| Structure (SMILES) | IC50 [nM] |
| --- | --- |
| CC(=O)NC/C(=C\F)COc1cccc(Cn2c(=S)[nH]c(=O)c3[nH]cnc32)c1 | > 30000 |
| CS(=O)(=O)c1ccc(OC/C(=C/F)CN)cc1 | 4 |
| NC/C(=C\F)COc1cc(Cn2c(=S)[nH]c(=O)c3[nH]ccc32)ccc1Cl | 12900 |
| NC/C(=C\F)COc1ccc(C(F)(F)F)c(Cn2c(=S)[nH]c(=O)c3[nH]cnc32)c1 | 1320 |
| NC/C(=C\F)COc1cccc(Cn2c(=S)[nH]c(=O)c3[nH]ccc32)c1F | 4 |
| NC/C(=C\F)COc1cccc(Cn2c(=S)[nH]c(=O)c3[nH]ccc32)c1 | 10 |
| Cc1c[nH]c2c(=O)[nH]c(=S)n(Cc3cc(F)cc(OC/C(=C/F)CN)c3)c12 | 35 |
| C=C(CN)COc1cccc(Cn2c(=S)[nH]c(=O)c3[nH]cnc32)c1 | 1420 |

Block 3 — effect on: thermal unfolding; method: differential scanning fluorimetry; concentration: 5.5 µM; direction: higher = more unfolded
Structure (SMILES): C[C@@H]1CN(c2ccc(-c3cc(C(=O)NCCOCCOCCOCCOCCNC(=O)/C=C/c4[nH]cc(C(=O)N[C@@H](CC(N)=O)c5ccc(F)c(Cl)c5)c4-c4ccc(Cl)cc4F)ccc3F)cc2NC(=O)c2c[nH]c(=O)cc2C(F)(F)F)C[C@H](C)N1C
DCAF1: DDB1- and CUL4-associated factor 1 (DCAF1, Homo sapiens, UniProt Q9Y4B6)
UniProt Q9Y4B6, sequence (whole entry, looked up): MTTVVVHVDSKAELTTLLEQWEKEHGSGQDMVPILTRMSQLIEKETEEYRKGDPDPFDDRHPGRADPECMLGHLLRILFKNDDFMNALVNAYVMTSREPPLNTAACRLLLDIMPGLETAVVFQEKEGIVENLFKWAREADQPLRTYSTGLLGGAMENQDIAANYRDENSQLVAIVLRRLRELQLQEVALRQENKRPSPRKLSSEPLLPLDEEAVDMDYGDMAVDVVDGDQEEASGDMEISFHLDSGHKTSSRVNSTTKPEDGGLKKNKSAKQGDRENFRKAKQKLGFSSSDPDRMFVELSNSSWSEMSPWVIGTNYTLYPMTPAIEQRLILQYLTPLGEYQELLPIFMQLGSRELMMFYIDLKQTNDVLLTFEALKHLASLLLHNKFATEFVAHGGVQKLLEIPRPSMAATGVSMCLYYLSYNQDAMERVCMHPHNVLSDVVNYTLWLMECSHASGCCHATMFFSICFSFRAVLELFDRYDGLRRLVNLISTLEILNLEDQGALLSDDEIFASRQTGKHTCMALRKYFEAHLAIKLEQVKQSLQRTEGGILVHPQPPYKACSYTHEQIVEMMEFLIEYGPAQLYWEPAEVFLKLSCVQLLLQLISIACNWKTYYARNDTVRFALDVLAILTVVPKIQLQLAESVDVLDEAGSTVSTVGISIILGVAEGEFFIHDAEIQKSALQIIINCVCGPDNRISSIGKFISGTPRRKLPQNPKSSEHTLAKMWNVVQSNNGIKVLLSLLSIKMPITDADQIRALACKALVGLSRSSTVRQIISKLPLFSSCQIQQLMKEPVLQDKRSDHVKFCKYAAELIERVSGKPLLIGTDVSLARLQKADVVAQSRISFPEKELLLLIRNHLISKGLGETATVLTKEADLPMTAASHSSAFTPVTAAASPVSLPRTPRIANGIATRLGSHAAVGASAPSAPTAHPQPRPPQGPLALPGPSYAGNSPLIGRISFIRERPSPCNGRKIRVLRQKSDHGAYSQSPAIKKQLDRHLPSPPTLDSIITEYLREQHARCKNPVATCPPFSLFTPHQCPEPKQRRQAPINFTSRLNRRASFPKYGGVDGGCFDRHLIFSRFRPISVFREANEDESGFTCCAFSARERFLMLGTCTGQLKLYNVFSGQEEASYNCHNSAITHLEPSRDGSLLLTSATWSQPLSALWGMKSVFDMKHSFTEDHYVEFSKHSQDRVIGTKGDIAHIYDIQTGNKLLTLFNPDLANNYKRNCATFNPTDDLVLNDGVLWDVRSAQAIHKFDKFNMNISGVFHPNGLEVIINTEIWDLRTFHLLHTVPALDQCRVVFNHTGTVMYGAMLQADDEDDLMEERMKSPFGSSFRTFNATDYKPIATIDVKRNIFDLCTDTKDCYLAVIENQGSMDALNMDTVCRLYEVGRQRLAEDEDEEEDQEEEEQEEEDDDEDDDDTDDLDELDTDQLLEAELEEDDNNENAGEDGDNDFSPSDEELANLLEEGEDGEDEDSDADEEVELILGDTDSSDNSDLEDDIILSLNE
WDR5: WD repeat-containing protein 5 (WDR5, Homo sapiens, UniProt P61964)
| target | temperature | SYPRO Orange fluorescence |
| --- | --- | --- |
| DCAF1 | 58.61 °C | 34000 a.u. |
| WDR5 | 90.41 °C | 50700 a.u. |
| WDR5 | 38.6 °C | 14100 a.u. |
| DCAF1 | 89.01 °C | 36100 a.u. |
| WDR5 | 43 °C | 15000 a.u. |
| DCAF1 | 68.01 °C | 58100 a.u. |
| WDR5 | 41.4 °C | 14400 a.u. |
| WDR5 | 51.8 °C | 16800 a.u. |
| WDR5 | 49.8 °C | 16400 a.u. |
| DCAF1 | 30.4 °C | 9550 a.u. |
| WDR5 | 86.21 °C | 53500 a.u. |

Block 4 — concentration: 1 µM
Structure (SMILES): CC[C@@]1(c2cccc(C(F)(F)F)c2)C2=C(Nc3n[nH]cc31)[C@H](F)C(C)(C)CC2=O (single isomer, unassigned)
| target | effect on | method | baseline | remaining binding [%] |
| --- | --- | --- | --- | --- |
| ALK tyrosine kinase receptor (ALK, Homo sapiens, UniProt Q9UM73, C1156Y) | binding | competition with immobilised ligand | – | 68 |
| Tyrosine-protein kinase HCK (HCK, Homo sapiens, UniProt P08631) | binding | competition with immobilised ligand | – | 100 |
| ALK tyrosine kinase receptor (ALK, Homo sapiens, UniProt Q9UM73, L1196M) | binding | competition with immobilised ligand | – | 63 |
| Serine/threonine-protein kinase ICK (CILK1, Homo sapiens, UniProt Q9UPZ9) | kinase binding | KINOMEscan | DMSO control | 100 |
| Glycogen synthase kinase-3 alpha (GSK3A, Homo sapiens, UniProt P49840) | kinase binding | KINOMEscan | DMSO control | 0.55 |
| Platelet-derived growth factor receptor alpha (PDGFRA, Homo sapiens, UniProt P16234) | binding | competition with immobilised ligand | – | 100 |
| Cyclin-dependent kinase-like 1 (CDKL1, Homo sapiens, UniProt Q00532) | binding | competition with immobilised ligand | – | 61 |
| Ribosomal protein S6 kinase alpha-6, N-terminal kinase domain (RPS6KA6, Homo sapiens, UniProt Q9UK32) | kinase binding | KINOMEscan | DMSO control | 100 |
| Tyrosine-protein kinase ABL1, non-phosphorylated (ABL1, Homo sapiens, UniProt P00519, F317I) | kinase binding | KINOMEscan | DMSO control | 100 |
| Receptor tyrosine-protein kinase erbB-4 (ERBB4, Homo sapiens, UniProt Q15303) | kinase binding | KINOMEscan | DMSO control | 100 |
| TGF-beta receptor type-1 (TGFBR1, Homo sapiens, UniProt P36897) | kinase binding | KINOMEscan | DMSO control | 80 |
| Myosin light chain kinase, smooth muscle (MYLK, Homo sapiens, UniProt Q15746) | kinase binding | KINOMEscan | DMSO control | 100 |
| Serine/threonine-protein kinase Nek9 (NEK9, Homo sapiens, UniProt Q8TD19) | kinase binding | KINOMEscan | DMSO control | 100 |
| Dual specificity protein kinase CLK4 (CLK4, Homo sapiens, UniProt Q9HAZ1) | binding | competition with immobilised ligand | – | 100 |
| Proto-oncogene tyrosine-protein kinase receptor Ret (RET, Homo sapiens, UniProt P07949, V804L) | binding | competition with immobilised ligand | – | 100 |
| Serine/threonine-protein kinase MAK (MAK, Homo sapiens, UniProt P20794) | binding | competition with immobilised ligand | – | 49 |
| Mitogen-activated protein kinase kinase kinase 1 (MAP3K1, Homo sapiens, UniProt Q13233) | binding | competition with immobilised ligand | – | 100 |
| Calcium/calmodulin-dependent protein kinase type 1B (PNCK, Homo sapiens, UniProt Q6P2M8) | kinase binding | KINOMEscan | DMSO control | 97 |
| Receptor-type tyrosine-protein kinase FLT3 (FLT3, Homo sapiens, UniProt P36888, K663Q) | kinase binding | KINOMEscan | DMSO control | 68 |

A few entries again (block 4):
| target | effect on | method | baseline | remaining binding [%] |
| --- | --- | --- | --- | --- |
| Cyclin-dependent kinase-like 1 (CDKL1, Homo sapiens, UniProt Q00532) | binding | competition with immobilised ligand | – | 61 |
| TGF-beta receptor type-1 (TGFBR1, Homo sapiens, UniProt P36897) | kinase binding | KINOMEscan | DMSO control | 80 |
| Platelet-derived growth factor receptor alpha (PDGFRA, Homo sapiens, UniProt P16234) | binding | competition with immobilised ligand | – | 100 |
| Tyrosine-protein kinase ABL1, non-phosphorylated (ABL1, Homo sapiens, UniProt P00519, F317I) | kinase binding | KINOMEscan | DMSO control | 100 |
| Serine/threonine-protein kinase Nek9 (NEK9, Homo sapiens, UniProt Q8TD19) | kinase binding | KINOMEscan | DMSO control | 100 |
